Experimental data pooled from the literature.
Numbers after ± are the reported error.

For COc1cc2ncnc(Oc3cccc(N[11C](=O)Nc4cc(C(C)(C)C(F)(F)F)on4)c3)c2cc1OC, the tissue uptake was 33.8 ± 1.23 %ID/g (Balb/c nude mouse, female, A375 melanoma xenograft, small intestine; 6.6 MBq, 30 min).
With COc1cc(C(=O)NCCOCCOCCOCCNC(=O)c2ccc([18F])nc2)ccc1NC(=O)C1NC(CC(C)(C)C)C(C#N)(c2ccc(Cl)cc2F)C1c1cccc(Cl)c1F (stereo not drawn) the tissue uptake was 0.55 ± 0.36 %ID/g (athymic male mice, SJSA-1 xenograft, large intestine; 1 h).
With COc1ccc(C)cc1NC(=O)OC1CC2CCCC(C1)N2Cc1ccc(CC[18F])cc1 (stereo not drawn) the tissue uptake was 1.62 ± 0.27 %ID/g (BALB/c mice, EMT6 tumour, muscle; 2 h).
N=C(N)NCc1ccc(C(=O)NCCCC[C@H](NC(=O)CCCCCCC(=O)NCCCC[C@H](NC(=O)N[C@@H](CCC(=O)O)C(=O)O)C(=O)O)C(=O)O)cc1[131I] gave a tissue uptake of 0.03 ± 0.01 %ID/g (SCID mouse, PC-3 xenografts, lungs; 21 h).
For CN[C@](C)(C[18F])C(=O)O, the tissue uptake was 7.3 ± 1.1 %ID/g (SCID mouse MDA-MB-468 xenograft, spleen; 60 min, post injection).
O=C(O)CC[C@H](NC(=O)O[C@@H](CCCCNC(=O)c1ccc([18F])cc1)C(=O)O)C(=O)O gave a tissue uptake of 0.25 ± 0.08 %ID/g (mouse, PC-3 PIP/flu xenografts, heart; 60 min).
N=C(N)NCc1ccc(C(=O)NCCCC[C@H](NC(=O)CCCCCCC(=O)NCCCC[C@H](NC(=O)N[C@@H](CCC(=O)O)C(=O)O)C(=O)O)C(=O)O)cc1[211At] has a tissue uptake of 4.31 ± 1.96 %ID/g (SCID mouse, PC-3 xenografts, spleen; 2 h).
For CCCC[C@H](NC(=O)CCOCCOCCNC(=O)CN1CCN(CC(=O)O)CCN(CC(=O)O)CCN(CC(=O)O)CC1)C(=O)N[C@H]1CC(=O)NCCCC[C@@H](C(N)=O)NC(=O)[C@H](Cc2c[nH]c3ccccc23)NC(=O)[C@H](CCCNC(=N)N)NC(=O)[C@@H](Cc2ccccc2)NC(=O)[C@H](Cc2c[nH]cn2)NC1=O [gallium-68 labelled], the tissue uptake was 0.6 ± 0.3 %ID/g (C57BL/6J mice male B16-F10 tumour, lungs; 1 h post injection, unblocked).
The tissue uptake of N=C(N)NCc1ccc(C(=O)NCCCC[C@H](NC(=O)N[C@@H](CCC(=O)O)C(=O)O)C(=O)O)cc1[211At] is reported as 0.1 ± 0.02 %ID/g (SCID mouse, PC-3 xenografts, muscle; 14 h).
The tissue uptake of COc1cc2ccnc(Cc3ccc(O[11CH3])c(OC)c3)c2cc1OC is reported as 0.041 ± 0.007 %ID/g (Sprague-Dawley rat, brain; intravenous, 30 min).
For N=C(N)NCc1ccc(C(=O)NCCCC[C@H](NC(=O)N[C@@H](CCC(=O)O)C(=O)O)C(=O)O)cc1[131I], the tissue uptake was 0.2 ± 0.1 %ID/g (SCID mouse, PC-3 xenografts, thyroid; 4 h).
For CCNc1cc2[o+]c3cc(NCC)c(C)cc3c(-c3ccccc3C(=O)OCCOCC[18F])c2cc1C, the tissue uptake was 0.16 ± 0.04 %ID/g (rat, skin; 120 min).
O=C(c1ccc(F)cc1)C1CCN(C2Cc3c(cccc3OCC[18F])CC2O)CC1 (single isomer, unassigned; (-)) gave a tissue uptake of 0.426 ± 0.086 %ID/g (Sprague-Dawley rat, male, bone; intravenous, dose not given, 5 min).
The tissue uptake of C=Cc1cc(O)cc2nc(-c3ccc(O)c([76Br])c3)oc12 is reported as 0.3 ± 0.15 %ID/g (female C57BL/6 mouse, ovaries; 1 h, high dose, with: estradiol 20 µg blocking).
C[C@]12CC[C@H](OCC[18F])C[C@H]1CC[C@@H]1[C@@H]2CC[C@]2(C)[C@@H](c3ccc(=O)oc3)CC[C@]12O has a tissue uptake of 15.8 ± 1.9 %ID/g (micro-PET; BALB/c nude mice, HepG2 xenograft, bladder; intravenous, 7.4 MBq, 120 min).

Some of these lines once more:
C[C@]12CC[C@H](OCC[18F])C[C@H]1CC[C@@H]1[C@@H]2CC[C@]2(C)[C@@H](c3ccc(=O)oc3)CC[C@]12O has a tissue uptake of 15.8 ± 1.9 %ID/g (micro-PET; BALB/c nude mice, HepG2 xenograft, bladder; intravenous, 7.4 MBq, 120 min).
